Measurements collected from several papers.
Compare with care: the assays were run in different laboratories.
Organism: Candida albicans

`CC[C@H](C)[C@H](NC(=O)CN)C(=O)NCC(=O)N[C@@H](C)C(=O)N[C@H](C(=O)N[C@@H](CC(C)C)C(=O)N[C@@H](CCCCN)C(=O)N[C@H](C(=O)N[C@@H](CC(C)C)C(=O)N[C@H](C(=O)N[C@H](C(=O)NCC(=O)N[C@@H](CC(C)C)C(=O)N1CCC[C@H]1C(=O)N[C@@H](C)C(=O)N[C@@H](CC(C)C)C(=O)N[C@H](C(=O)N[C@@H](CO)C(=O)N[C@@H](Cc1c[nH]c2ccccc12)C(=O)N[C@H](C(=O)N[C@@H](CCCCN)C(=O)N[C@@H](CCCNC(=N)N)C(=O)N[C@@H](CCCCN)C(=O)N[C@@H](CCCNC(=N)N)C(=O)N[C@@H](CCC(N)=O)C(=O)N[C@@H](CCC(N)=O)C(N)=O)[C@@H](C)CC)[C@@H](C)CC)[C@@H](C)O)[C@@H](C)O)C(C)C)C(C)C` gave an MIC of 4 µM (broth microdilution; 17546, RPMI-1640; 48 h, 30 °C).
The MIC of `N=C(N)NCCC[C@H](NC(=O)[C@H](Cc1c[nH]c2ccccc12)NC(=O)[C@H](CCCNC(=N)N)NC(=O)[C@H](Cc1c[nH]c2ccccc12)NC(=O)[C@H](Cc1c[nH]c2ccccc12)NC(=O)[C@H](Cc1c[nH]c2ccccc12)NC(=O)[C@H](CCCNC(=N)N)NC(=O)[C@H](Cc1c[nH]c2ccccc12)NC(=O)[C@@H](N)CCCNC(=N)N)C(=O)N[C@@H](Cc1c[nH]c2ccccc12)C(N)=O` is reported as 8 µM (broth microdilution; 17546, RPMI 1640-MOPS; 48 h, 30 °C).
With `CC[C@H](C)[C@H](NC(=O)[C@@H](NC(=O)[C@H](Cc1c[nH]c2ccccc12)NC(=O)[C@H](Cc1c[nH]c2ccccc12)NC(=O)[C@H](CCCNC(=N)N)NC(=O)[C@@H](N)CCCNC(=N)N)[C@@H](C)O)C(=O)N[C@H](C(N)=O)C(C)C` the MIC was > 512 µg/mL.
For `C[C@@H](O)[C@H](NC(=O)[C@H](Cc1ccccc1)NC(=O)[C@H](Cc1c[nH]c2ccccc12)NC(=O)[C@H](Cc1ccccc1)NC(=O)[C@@H](NC(=O)[C@H](Cc1ccccc1)NC(=O)[C@H](CCCNC(=N)N)NC(=O)[C@@H](N)CCCNC(=N)N)[C@@H](C)O)C(=O)N[C@@H](Cc1ccccc1)C(=O)N[C@@H](CCCNC(=N)N)C(=O)N[C@@H](CCCNC(=N)N)C(N)=O`, the MIC was 2 µM (CGMCC 2.209, RPMI 1640 MOPS-buffered; 48 h, 37 °C, tested up to 128 µM).
With `CCCCCCC[C@@H]1CC(=O)N[C@H](CC(C)C)C(=O)N[C@@H](CO)C(=O)N[C@@H]([C@@H](C)O)C(=O)N[C@H](Cc2ccc(O)cc2)C(=O)N[C@@H]([C@@H](C)CC)C(=O)O1` the MIC was > 100 µM (fungal growth, XTT; SC5314).
The MIC of `C#Cc1ccc(O)c(C=NNC(=O)c2ccc(Br)cc2Br)c1` is reported as 16 µg/mL (A39; 48 h).
`N=C(N)NCCC[C@H](NC(=O)[C@H](Cc1c[nH]c2ccccc12)NC(=O)[C@H](CCCNC(=N)N)NC(=O)[C@H](Cc1c[nH]c2ccccc12)NC(=O)[C@H](Cc1c[nH]c2ccccc12)NC(=O)[C@H](Cc1c[nH]c2ccccc12)NC(=O)[C@H](CCCNC(=N)N)NC(=O)[C@H](Cc1c[nH]c2ccccc12)NC(=O)[C@@H](N)CCCNC(=N)N)C(N)=O` has an MIC of 32 µM (broth microdilution; CGMCC 2.209, RPMI 1640-MOPS; 48 h, 30 °C, together with: CaCl2 2 mM).
With `C[C@@H]1[C@H](O)[C@@H](C)/C=C/C=C/C=C/C=C/C=C/C=C/C=C/[C@H](O[C@@H]2O[C@H](C)[C@@H](O)[C@H](N)[C@@H]2O)C[C@@H]2O[C@](O)(C[C@@H](O)C[C@@H](O)[C@H](O)CC[C@@H](O)C[C@@H](O)CC(=O)O[C@H]1C)C[C@H](O)[C@H]2C(=O)O` the MIC was 0.31 µg/mL (fungal growth; ATCC 90028).
`CC(=O)N1CCN(c2ccc(OCC3COC(Cn4ccnc4)(c4ccc(Cl)cc4Cl)O3)cc2)CC1` (stereo not shown) gave an MIC of 4 µM (2.209; before resistance passaging).
For `CC(C)[C@H](NC(=O)[C@H](CCCNC(=N)N)NC(=O)[C@H](Cc1c[nH]c2ccccc12)NC(=O)[C@H](CCCNC(=N)N)NC(=O)[C@H](Cc1c[nH]c2ccccc12)NC(=O)[C@H](Cc1c[nH]c2ccccc12)NC(=O)[C@H](Cc1c[nH]c2ccccc12)NC(=O)[C@H](CCCNC(=N)N)NC(=O)[C@H](Cc1c[nH]c2ccccc12)NC(=O)[C@H](CCCNC(=N)N)NC(=O)CN)C(N)=O`, the MIC was 8 µM (broth microdilution; 56452, RPMI 1640-MOPS; 48 h, 30 °C).

Some of these lines once more:
The MIC of `N=C(N)NCCC[C@H](NC(=O)[C@H](Cc1c[nH]c2ccccc12)NC(=O)[C@H](CCCNC(=N)N)NC(=O)[C@H](Cc1c[nH]c2ccccc12)NC(=O)[C@H](Cc1c[nH]c2ccccc12)NC(=O)[C@H](Cc1c[nH]c2ccccc12)NC(=O)[C@H](CCCNC(=N)N)NC(=O)[C@H](Cc1c[nH]c2ccccc12)NC(=O)[C@@H](N)CCCNC(=N)N)C(=O)N[C@@H](Cc1c[nH]c2ccccc12)C(N)=O` is reported as 8 µM (broth microdilution; 17546, RPMI 1640-MOPS; 48 h, 30 °C).
